Published values of several laboratories.
Each line is one published result; not all experiments were run side by side. pEC50, pIC50: −log10 of the molar value. ≈ marks a conversion by molar mass, not a printed value.

CNCc1ccc2c(c1)N(C(=O)OCc1c(F)c(F)c(F)c(F)c1F)[C@H](CNC(=N)N)[C@H]2NC(=O)C(=O)Nc1ccc(Cl)c(F)c1 — IC80 (HIV-1; pseudovirus infection, Env pseudovirus neutralisation; TZM-bl, clade G isolate C1_B5): 4510 nM
Cc1ccccc1/C=C/C(=O)N[C@@H](CO)C(=O)N[C@H](C(=O)N[C@H](Cc1ccccc1)C(=O)N[C@@H]1C(=O)N2[C@@H](CC(=O)O)C(=O)Nc3ccccc3[C@@]2(O)[C@@H]1O)[C@@H](C)O — MIC50 (Mycobacterium avium; resazurin microtitre; 104; 4 days, 37 °C): inactive
Cc1cccc2c1N(C(=O)n1ccnn1)CC2 — hypocotyl length (Arabidopsis thaliana; wild type, seedlings; 10 µM, continuous red light, added: 0.3 µM karrikin KAR2): 14 mm
CC(C)CS(=O)(=O)N[C@H]1CC[C@H](Nc2ncc3c(N4CCOCC4)n[nH]c3n2)CC1 — pEC50 (Leishmania donovani; parasite growth; THP-1; intracellular, amastigote): 6.43
Fc1ccc2c(c1)c1nc3ccc(Br)cc3c-1cn2Cc1cn(-c2ccccc2I)nn1 — fold change (Giardia duodenalis trophozoites; UHPLC-Q-TOF-MS metabolomics, item: all-trans-nonaprenyl diphosphate; IC50, 0.167 h; relative to: 0.25% DMSO): 2.46
N=C(N)NCCC[C@@H]1NC(=O)[C@H](CCCNC(=N)N)NC(=O)[C@@H](CCCNC(=N)N)NC(=O)[C@@H](CCCNC(=N)N)NC(=O)[C@@H](C(c2ccccc2)c2ccccc2)NC(=O)[C@H](Cc2c[nH]c3ccccc23)NC(=O)[C@@H](C(c2ccccc2)c2ccccc2)NC1=O — biofilm reduction (Aspergillus fumigatus; XTT; Af 293; 2 × MIC, 24 h, pre-formed biofilm): 69 to 73%
CC(=O)C(C)(c1c[nH]c2ccccc12)c1c[nH]c2ccccc12 — pIC50 (Parabacteroides distasonis; bacterial growth, inhibitor, OD600; anaerobic): < 4.30
FC(F)(F)c1cccc(CNc2nc(NC3CCN(Cc4ccccc4)CC3)c3nc[nH]c3n2)c1 — log2 fold change (Cryptococcus neoformans; RNA-seq, item: SAC1 (CNAG_06080) mRNA; 48 µg/mL, 3 h; relative to: untreated wild type): -0.444
CC(C)CC(c1c[nH]c2ccccc12)c1c[nH]c2ccccc12 — pIC50 (Parabacteroides distasonis; bacterial growth, inhibitor, OD600; anaerobic): < 4.30
N=C(N)NCCC[C@@H]1NC(=O)[C@H](CCCNC(=N)N)NC(=O)[C@H](CCCNC(=N)N)NC(=O)[C@@H](CCCNC(=N)N)NC(=O)[C@H](Cc2ccc3ccccc3c2)NC(=O)[C@H](Cc2ccc3ccccc3c2)NC(=O)[C@H](Cc2ccc3ccccc3c2)NC1=O — MIC (Blastomyces dermatitidis; BD-3): 4 µg/mL (≈ 3.29 µM)
CCOC(=O)c1cc(-c2nc3ccccc3s2)c(=O)n(NS(=O)(=O)c2ccc(Cl)cc2)c1N — viral load reduction (hepatitis C virus; qRT-PCR; Huh7.5, genotype 4; concentration not given): 0%
C=C(NC(=O)c1csc(-c2nc3c(cc2O)-c2nc(cs2)C(=O)NC(C(C)O)C(=O)NC(=C(C)OC)c2nc(cs2)C(=O)NC2c4nc(cs4)C(=O)NC(COC(=O)c4c5c6c(cccc6n4O)COC(=O)C(OC4CC(C)(O)C(N(C)C)C(C)O4)C2OC5)c2nc-3cs2)n1)C(N)=O (stereo not drawn) — ED50 (Streptococcus pneumoniae; -25, immunocompromised mice, lung infection; bid dosing): 4.33 mg/kg
Cc1cc(Cl)cc(S(C)=NC#N)c1NC(=O)c1cc(Br)nn1-c1ncccc1Cl (stereo not drawn) — corrected larval mortality (Spodoptera litura; Brassica oleracea field; 50 ppm, 72 h, 10% wettable powder): 81.2%
N=C(N)NCCC[C@@H]1NC(=O)[C@H](CCCNC(=N)N)NC(=O)[C@@H](CCCNC(=N)N)NC(=O)[C@H](C(c2ccccc2)c2ccccc2)NC(=O)[C@H](C(c2ccccc2)c2ccccc2)NC(=O)[C@H](C(c2ccccc2)c2ccccc2)NC(=O)[C@H](CCCNC(=N)N)NC1=O — MIC (Blastomyces dermatitidis; BD-2): 1 µg/mL (≈ 0.772 µM)
CC1(C)[C@H](NC(=O)/C(=N\OCC(=O)N2CCC[C@@H]2C(=O)O)c2nsc(N)n2)C(=O)N1OS(=O)(=O)O — MIC (Serratia marcescens; agar dilution; ATCC 21074, susceptible): 1 µg/mL (≈ 1.87 µM)
C[C@@H]1C(=O)O[C@@H](C)/C=C/C=C\[C@@H](C)[C@@H]2C=C[C@@H]3C[C@@]4(C)O[C@H]4[C@@H](C)[C@H]3[C@@H]2C(=O)C(Cl)(Cl)C1=O — highest MIC (Staphylococcus aureus; MSSA and MRSA clinical isolates; 180 isolates): 0.2 µg/mL
COc1ccc(NC(=O)COc2cccc(OCC(C)C)c2)cc1 — MIC50 (Aspergillus fumigatus; microbial growth, broth dilution; MF5668): 16 µg/mL (≈ 48.6 µM)
CC(C)(C)NCC(SS(=O)(=O)O)c1ccccc1 (stereo not drawn) — female worm burden reduction (Schistosoma mansoni; mice; 600 mg/kg single dose, 1056 h, dosed day 1, perfused 44; relative to: vehicle): 8%
COC1C=COC2(C)Oc3c(C)c(O)c4c(c3C2=O)C2=NC3(CCN(CC(C)C)CC3)NC2=C(NC(=O)C(C)=CC=CC(C)C(O)C(C)C(O)C(C)C(OC(=O)Nc2cnccn2)C1C)C4=O (stereo not drawn) — IC90 (Mycobacteroides abscessus; bacterial growth; subsp. abscessus clinical isolate; slow grower): 56 nM
CC(c1c[nH]c2ccccc12)c1c[nH]c2ccccc12 — pIC50 (Parabacteroides distasonis; bacterial growth, inhibitor, OD600; anaerobic): < 4.30
O=C1C(O)=C([C@H]2CC[C@H](c3ccc(Cl)cc3)CC2)C(=O)c2ccccc21 — pEC50 (Toxoplasma gondii; tachyzoite growth, luciferase; HFF; 72 h): 6.81
